Published values collected from several papers.
Every numbered part comes from another study and shows a few of its results, in no order. Substitutions count along the parent as printed.

Set 1 — target: vanadate, free oxyanion; technique: microfluidic competitive inhibition; medium: in vitro, cell-free expressed; tested at: not given; reading: lower = stronger binding
Notes: derived from inhibition constants, unchanged parent 676 nM
Starting sequence: PafA, mature enzyme, eGFP fusion (Elizabethkingia meningoseptica, UniProt Q9KJX5); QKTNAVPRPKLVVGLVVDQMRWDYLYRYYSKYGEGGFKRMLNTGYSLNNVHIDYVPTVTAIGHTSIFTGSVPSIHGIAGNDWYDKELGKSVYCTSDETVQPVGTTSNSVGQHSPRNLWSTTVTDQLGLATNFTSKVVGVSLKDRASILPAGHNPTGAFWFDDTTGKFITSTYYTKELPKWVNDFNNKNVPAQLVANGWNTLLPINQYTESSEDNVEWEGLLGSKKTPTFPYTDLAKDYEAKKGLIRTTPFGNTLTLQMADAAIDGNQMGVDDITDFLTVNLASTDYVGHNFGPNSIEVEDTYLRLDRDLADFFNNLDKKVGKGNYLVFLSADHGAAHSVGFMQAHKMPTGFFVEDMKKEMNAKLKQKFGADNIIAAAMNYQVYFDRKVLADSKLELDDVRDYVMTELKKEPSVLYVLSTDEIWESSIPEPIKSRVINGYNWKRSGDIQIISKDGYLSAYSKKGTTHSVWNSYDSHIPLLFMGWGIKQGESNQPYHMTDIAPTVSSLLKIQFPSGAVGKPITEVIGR
`P512V` — result for “oxyanion analog dissociation constant”: 643 nM.
`S211V`: “oxyanion analog dissociation constant” 698 nM.
For `W423V`, “oxyanion analog dissociation constant” read 711 nM.
For `D275V`, “oxyanion analog dissociation constant” read 1270 nM.
`P72V`: “oxyanion analog dissociation constant” 1360 nM.
Under “oxyanion analog dissociation constant”, `D143G` is recorded as 3800 nM.

Set 2 — technique: RNA Bind-n-Seq; form: RNA; medium: in vitro; tested at: 100 nM; relative to: input RNA pool; reading: higher = stronger binding
Target: RING finger protein unkempt homolog, zinc fingers 1-6, SBP tag (UNK, Homo sapiens, UniProt Q9C0B0, residues 30-357)
Chain of UniProt Q9C0B0 (30-357, looked up): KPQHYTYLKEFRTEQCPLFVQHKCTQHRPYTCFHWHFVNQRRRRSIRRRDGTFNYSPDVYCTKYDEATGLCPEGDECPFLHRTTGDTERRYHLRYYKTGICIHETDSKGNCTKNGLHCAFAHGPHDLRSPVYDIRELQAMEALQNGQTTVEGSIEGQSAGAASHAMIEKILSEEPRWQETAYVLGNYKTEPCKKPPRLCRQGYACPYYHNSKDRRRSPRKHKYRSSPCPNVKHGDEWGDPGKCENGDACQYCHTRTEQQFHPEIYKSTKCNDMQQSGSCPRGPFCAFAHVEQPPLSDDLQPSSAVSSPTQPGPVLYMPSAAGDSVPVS
Notes: RNA with constant flanks, vertebrate orthologous sites, ends assumed
`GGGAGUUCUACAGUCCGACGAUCUAUAAUUAUGAAAAUCUAAAGGAUUUUUAAUGUUUAAUUUCCCCCAGCAUAUAUAUUAAGACCUCUUUUUCCAGGCAGAUCAUUCAGAGUGUGCGAGUGUGUGUGCACAUGUUACAAAGACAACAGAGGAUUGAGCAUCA` has a bound/input enrichment of 0.599 ratio.
The bound/input enrichment of `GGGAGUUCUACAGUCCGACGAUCAAAUUCCCCCAUUGUCACUGAGAACCACCAAAUCUGACUUUUACAUUUGGUCUCAGAAUUUAGGUUCCUGCCCUGUUGGUUUUUUUUUUUUAAACAGUUUUCAAAAGUUCUUAAAGGCAACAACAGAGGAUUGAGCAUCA` is reported as 0.495 ratio.
`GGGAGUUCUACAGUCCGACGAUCUAUUAGUGUCGUACCAGCCUAUUAACCUCUCGUCUGUGCACAGCUUCAAAUGUUACUGUCUAGUUAGAUUUUUAUUUAAAAUAUGAAAAACUGCUUUUCCCAAGACGUUUUUUAAAAACACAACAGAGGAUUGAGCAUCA` has a bound/input enrichment of 1.61 ratio.
With `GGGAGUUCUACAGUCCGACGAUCCAACUCCAUGGUGGAGGGUUCGGAACUCAAAAAAGUUCGCUCCAAUUCCCGUGUGUAUCACAGGUACUUUCUUUUAGAUGCGGAUAUGCAGUCGCUGAGAUGGGAACCUUCCAAAAAAGACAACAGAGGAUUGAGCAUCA` the bound/input enrichment was 0.271 ratio.
With `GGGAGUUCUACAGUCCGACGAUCUUUUAUUGAUCAGGUCUGUAAAUGUGUACUAAAAAAAUCAGAGUUUAUUUAUGAACUGAAUGGUUUAUUUAAAAAGAAGGUCUUUCCUCAUCCAUAUUGUGGUAUGCAUUAAUUCCAUUUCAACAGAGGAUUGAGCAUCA` the bound/input enrichment was 0.197 ratio.
The bound/input enrichment of `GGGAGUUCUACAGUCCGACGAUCAACCUCCUGAACGUUUAGCUUUCAAGUUGUGGCUGUUUUAGAUACUGGUUUUAUUUUCUUUAGCAUUUUUCCCUGUUUCCCAUCUUCUCCUCCCCUGUUCCCAAGGUUUGACUCAUGGAUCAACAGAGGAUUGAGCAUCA` is reported as 4.82 ratio.
`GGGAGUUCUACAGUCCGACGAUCUAUAAUUAUGAAAAUCUAAAGGAUUUUUAAUGUUUAAUUUCCCCCAGCAUAUAUAUUAAGACCUCUUUUUUUUCCAGGCAGAUCAUUCAGAGUGUGCGAGUGUGUGUGCACAUGUUACAACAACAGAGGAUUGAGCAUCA` gave a bound/input enrichment of 0.703 ratio.
`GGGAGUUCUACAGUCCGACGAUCUGGGAAGUCCUGUCUGCCGUGACACCUCAGUGAGGGAGUCUCUGGGCGUUUGACUGGGCCAGCCUUGCUGGUCCUCAGCCUCUCGACAUGGAAUUCCAUCUCUUUUAUGUCUGCUCAUCCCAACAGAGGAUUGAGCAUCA` has a bound/input enrichment of 0.303 ratio.

Set 3 — target: CCNB1, cyclin fold, Cln2 fusion (human); technique: yeast growth competition, sequencing; medium: yeast; notes: weak parent motif; relative to: not given; reading: higher = stronger binding; starting sequence: viral docking peptide; PGASRRLFGSSAD
For `PGASRRLFGSAAD [S11A]`, “normalised enrichment score” read 0.65.
`PGASARAFGSSAD [R5A L7A]` — result for “normalised enrichment score”: 0.359.
`PGASRRLAGSSAD [F8A]`: “normalised enrichment score” 0.686.
`PGASKRLLGSSAD [R5K F8L]`: “normalised enrichment score” 0.203.
For `PAASRRLFGSSAD [G2A]`, “normalised enrichment score” read 0.808.
`PGAARRLFGSSAD [S4A]` — result for “normalised enrichment score”: 0.578.
For `PGASARLFGSSAD [R5A]`, “normalised enrichment score” read -0.114.

Set 4 — read-out: binding; technique: phage display NGS; form: peptide; relative to: input library
Target: UDP-N-acetylglucosamine--peptide N-acetylglucosaminyltransferase 110 kDa subunit (OGT, Homo sapiens, UniProt O15294)
Chain of UniProt O15294 (whole entry, looked up): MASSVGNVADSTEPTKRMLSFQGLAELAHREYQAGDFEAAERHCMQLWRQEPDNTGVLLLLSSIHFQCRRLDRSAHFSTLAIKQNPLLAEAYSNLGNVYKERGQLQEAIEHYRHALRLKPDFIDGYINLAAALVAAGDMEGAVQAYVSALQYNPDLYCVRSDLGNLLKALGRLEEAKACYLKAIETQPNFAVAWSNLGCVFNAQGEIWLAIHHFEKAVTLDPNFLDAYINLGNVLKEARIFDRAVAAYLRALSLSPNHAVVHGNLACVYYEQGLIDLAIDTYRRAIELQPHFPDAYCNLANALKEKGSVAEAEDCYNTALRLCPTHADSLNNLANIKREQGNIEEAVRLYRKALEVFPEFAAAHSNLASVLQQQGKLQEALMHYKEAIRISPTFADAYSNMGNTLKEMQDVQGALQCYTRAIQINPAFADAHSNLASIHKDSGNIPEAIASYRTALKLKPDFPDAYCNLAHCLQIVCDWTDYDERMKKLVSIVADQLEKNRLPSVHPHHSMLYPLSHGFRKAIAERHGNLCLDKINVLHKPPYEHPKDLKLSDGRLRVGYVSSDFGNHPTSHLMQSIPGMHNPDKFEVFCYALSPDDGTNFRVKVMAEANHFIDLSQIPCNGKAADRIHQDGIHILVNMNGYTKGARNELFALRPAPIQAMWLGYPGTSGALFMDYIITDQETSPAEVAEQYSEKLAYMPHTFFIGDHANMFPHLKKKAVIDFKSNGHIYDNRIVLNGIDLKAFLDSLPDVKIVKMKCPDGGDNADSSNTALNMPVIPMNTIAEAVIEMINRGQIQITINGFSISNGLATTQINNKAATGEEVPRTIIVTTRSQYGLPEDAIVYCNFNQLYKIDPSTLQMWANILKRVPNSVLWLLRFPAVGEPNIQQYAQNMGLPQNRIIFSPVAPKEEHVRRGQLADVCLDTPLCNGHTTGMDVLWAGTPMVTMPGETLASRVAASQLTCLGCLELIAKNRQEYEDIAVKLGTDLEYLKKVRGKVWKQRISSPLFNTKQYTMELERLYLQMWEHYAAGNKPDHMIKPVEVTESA
`YAPQYQILFNYNIKL` — result for “minimum log2 enrichment ratio”: 3.97.
`HVQNGHTHKIHAHEV`: “minimum log2 enrichment ratio” 2.08.
Under “minimum log2 enrichment ratio”, `TVVMTLPHHHHGRGD` is recorded as 2.5.
Under “minimum log2 enrichment ratio”, `HSSDIPEHRHHEHIR` is recorded as 3.49.
Under “minimum log2 enrichment ratio”, `EALFRYTPFYQIDI` is recorded as 3.77.
`NEQQIFPPIYIIQHP`: “minimum log2 enrichment ratio” 1.73.
